Results gathered from unrelated publications.
Each numbered part is a random draw from the data of one study; scales do not carry over between parts.

Series 1
Target: Phosphate system positive regulatory protein PHO4, full length, GST-tagged (PHO4, Saccharomyces cerevisiae, UniProt P07270, residues 1-312)
Technique: competition protein-binding microarray
Molecule type: double-stranded DNA, one strand shown
Sample: in vitro
Tested at: 2 µM
Setting: whole 60-bp probe, lowest competitor level
Together with: Cbf1 competitor, 0.05 µM
Direction: higher = stronger binding
Target sequence (chain): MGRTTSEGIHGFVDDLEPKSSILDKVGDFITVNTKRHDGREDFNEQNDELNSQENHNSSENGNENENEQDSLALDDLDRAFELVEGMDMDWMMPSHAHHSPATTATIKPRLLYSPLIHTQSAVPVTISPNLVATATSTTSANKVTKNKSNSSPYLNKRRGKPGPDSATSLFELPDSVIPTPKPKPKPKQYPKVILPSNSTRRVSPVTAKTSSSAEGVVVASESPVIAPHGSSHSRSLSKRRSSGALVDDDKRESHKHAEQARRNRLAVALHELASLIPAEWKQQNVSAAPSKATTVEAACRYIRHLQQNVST
Sequence	fluorescence intensity
CGTCCTAGTGATTTTCACGTGTGTTCCATGAGGAAGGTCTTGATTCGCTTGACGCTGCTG	11800 a.u.
CGTCCTAGTGATTTTCACGTGAAATCCATGAGGAAGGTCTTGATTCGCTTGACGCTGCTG	7490 a.u.
CGGGGTTAAGTTTGCACGGTGGGTGGCTTGCAGCAGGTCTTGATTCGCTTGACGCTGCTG	8180 a.u.
AAGATTACCAATCACCACGTTATTTGAGAGAGGATGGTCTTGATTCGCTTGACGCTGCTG	9870 a.u.
TGCGCAACAACTTGGTTAGTGGGTGTATGTCTAGAAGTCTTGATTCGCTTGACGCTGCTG	4810 a.u.
CAACCAACTGACGAAACCGTGATGGTCATTAGAACTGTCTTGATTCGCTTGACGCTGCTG	5480 a.u.
CGTCCTAGTGATTGCTGAGTGGGTGCCATGAGGAAGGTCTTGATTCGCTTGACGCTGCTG	6880 a.u.
TGATTTGCTTCTCACCACGGGTAGTTATCATTGGCTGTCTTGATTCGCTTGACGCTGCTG	7530 a.u.
AAAGCGGTAATTTGGCTAGTGGGTGCAGATATCTATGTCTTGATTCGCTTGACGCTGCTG	4680 a.u.
CTAACGAAGGTTTGTCACTGGACTTACAAGCCAAGTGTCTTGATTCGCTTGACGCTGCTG	2920 a.u.
ATTTTCGAGGGTTACGTCGTGACTCGTATGCTTTCTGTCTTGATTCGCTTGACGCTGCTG	5490 a.u.
AAATTACTAAGTTGTGATGTGGGTGACGCCGTATGAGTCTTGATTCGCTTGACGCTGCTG	4370 a.u.
AAATTACTAAGTTTTCACGTGGAGTACCCCGTATGAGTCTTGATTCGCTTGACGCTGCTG	13800 a.u.
GTCAAACTCCAAAGACACGTGCTCCCCTCGGCACCAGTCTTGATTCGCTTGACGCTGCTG	18700 a.u.
AAAGCGGTAATTTGTGCGGTGGGTGCAGATATCTATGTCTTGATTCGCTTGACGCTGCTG	4710 a.u.
AGCAACGACATTCCACACGTGGTGCGGTTCAGCGCGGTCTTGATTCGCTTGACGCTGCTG	17700 a.u.
AAGGCAGAGGTTGGAAACGTGTGGAGACTCCAAATGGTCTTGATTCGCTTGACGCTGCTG	11100 a.u.
TGTAATAGTTGCCATCACGTCGACAGCTTCAATGTTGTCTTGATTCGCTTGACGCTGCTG	4880 a.u.
AGATGATACTGTTTGCACGCAAATATAGGCTTGATTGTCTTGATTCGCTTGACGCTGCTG	5040 a.u.

Series 2
Target: RNA binding protein fox-1 homolog 2, RRM domain, GST-SBP tag (RBFOX2, Homo sapiens, UniProt O43251-10, residues 100-194)
Technique: RNA Bind-n-Seq
Molecule type: RNA
Sample: in vitro
Tested at: 365 nM
Setting: natural RNA segment, single round, ends assumed
Relative to: no-protein control
Direction: higher = stronger binding
Construct (chain): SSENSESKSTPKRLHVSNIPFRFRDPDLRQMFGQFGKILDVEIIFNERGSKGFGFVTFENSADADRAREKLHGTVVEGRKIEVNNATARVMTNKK
Sequence	RBNS enrichment (R)
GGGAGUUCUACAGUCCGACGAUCCAAAAGAGAACUGGUUAACCUUGAAGUGACUGUUGUACAGUGGCUGUGCACGUGCUUCAGACUCAUUUGCGAGGGAAUGCUUUCUGUAUGAGAGGGAGACGGUAGGCCUUUGGAAUUCUCGGGUGCCAA	0.742
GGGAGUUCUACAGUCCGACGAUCGGAGAGUGACAGCAGCUAUAGGGUGGACUCAGGAGCUGUCAGUCUUAACAGCUGAGCCUUGGACCCCACUGCCUCUGAGUCUACAUUCUGGCAGGCAGUCCCAUGCUCUGUGGAAUUCUCGGGUGCCAA	0.458
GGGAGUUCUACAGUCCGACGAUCAGUCUGCCCCCAUUUCCUUUUCCUAUAAUCCUGCCUUCCAGGGUUCCCCCCUCCCUGAAAUUUGUCCUUCAGGAGUAACCCCUACCCACCCCUGUCCCUGUGAGUCUGGAUGGAAUUCUCGGGUGCCAA	1.1
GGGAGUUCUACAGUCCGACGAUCUGAAGCUAUUGUCAGCUUCUCUAUUUCAAAUGCAAUCAGCAUAUAUCUAUAUUGAUAUCAGAAAAUACUUGUUUUUUAAAGAUAUAUUGAUGUAUGAUAAAGAUGAUCUAUGGAAUUCUCGGGUGCCAA	0.41
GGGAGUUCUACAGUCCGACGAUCGCUAGAGGGCGCUCUAGGACAGCGUCGGAUCCUGUCUCUGGCAACCCCUUGCAAGCCCACGGGGCUUCCUGGGUGGGAGGAAGAGGGUUCAGGCACUUCCCACCACCUUUUGGAAUUCUCGGGUGCCAA	0.269
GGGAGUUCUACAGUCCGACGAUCCCAGUUGUAGUCGUUUGAGUGCAGUAAUGAAAUCUGAAUCUAAAAUAAAAACAAGAUUAUUUUUGUCAUGCUGACUCCACUGCUUGAAAAAUUUGUUUACUGCCCCCCAGUGGAAUUCUCGGGUGCCAA	0.846
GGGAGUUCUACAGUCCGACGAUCUACUCCAAGAGGAUAGGGAGGGCACUGCACCCAAGCAGGAGGUGAGGUCUGUCACUAGGCAGGAAACCAUGUAGGUAAGUGUAGGACCUGCUUUGCUUAGCCACUACUGGUGGAAUUCUCGGGUGCCAA	0.634
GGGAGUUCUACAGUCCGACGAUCUCACACCAUGGGAUACAUCUGUAUGGAGACGGUUCUUUUCUAGAUUUCCUCUACCUUUCUGCUCUUAAACUGCUUCUCUGCUCUGAGAAGCCCAGCUACCUGCCUUCACUUGGAAUUCUCGGGUGCCAA	0.415
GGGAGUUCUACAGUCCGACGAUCGGUUCCCCAAAUCACUUCAAUCUCUUCGUCACAUAUUGGGGUGGUACCAAGGAAGGUGACCAGUAUUGUUUACAGAUGAUUUUCUAAGGAAAAGUUGAGGGGGACUUAGGUGGAAUUCUCGGGUGCCAA	0.592
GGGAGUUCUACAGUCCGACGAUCACCUGUGCACAAGGGAAAUAACUUAGGCACUUUCGGAGUUUGUGUUUGUUUUGUUUUGUUUAAUAAGGUCCCAUGGCUUCUUUGGGAAUCCACGAUAAGAAAAACAACCCUGGAAUUCUCGGGUGCCAA	0.689
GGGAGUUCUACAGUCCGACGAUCUUGAAACUCUAAUUGCAAUAACUUCAGUCUUUCUCCAUCUUCAGCUGUAUCCACAAAAUCUCCACUGCUGUCGAGUGUCCUUUAGCUGUGGACCAAAGGCAACCCCUGCAUGGAAUUCUCGGGUGCCAA	2.28
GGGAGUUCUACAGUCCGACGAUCAUCUGUAUAUAUUAUUUGAUAUUCAGAGAAUCUAAAGCACUCGUCUACUGUUUUAAUGAGAUUUAACAGCUUUUAACAGUGAGUUUCGUUUGUAAACUGCUUGAAGUCUGUGGAAUUCUCGGGUGCCAA	0.324

Series 3
Target: Sal-like protein 4, full length isoform B (SALL4, Homo sapiens, UniProt Q9UJQ4-2, residues 1-616)
Technique: universal PBM
Molecule type: double-stranded DNA, one strand shown
Sample: in vitro
Tested at: not given
Setting: 8-mer, flanks averaged, mean of replicates
Direction: higher = stronger binding
Sequence	E-score
ACACGTGC	-0.163
CGTGTTGC	-0.161
AACGCTAG	-0.0559
ACGACTCT	0.00459
GTGTTCCA	0.0461
GTAATAAA	0.397
TAGACAGA	0.0901
CGGACGTA	-0.103
AACCGATG	-0.181
AATGGTTC	0.0931
ATGTCCCC	-0.0649
GCATCAAC	-0.0453
AGTACGAC	0.00306
CTTCGTCA	0.0265
AGTGGACC	-0.158
ATAGAACC	0.0322
GTAGGTTA	0.104
AGCCTTAG	-0.0484
GCCTTTCC	-0.0124
GATTATAC	0.163
GGATTGAA	0.116
CATATTGC	0.172
ACTGTCCA	0.0115
GGTAACAA	0.23

Series 4
Target: Interferon regulatory factor 5, full length, phosphomimetic (IRF5, Homo sapiens, UniProt Q13568-2, residues 1-514, K96S/S451D/S453D/S456D/S462D)
Technique: protein-binding microarray
Molecule type: double-stranded DNA, one strand shown
Sample: in vitro
Tested at: 250 nM
Setting: 60-bp whole probe
Together with: salmon DNA 0.4 mg/ml
Relative to: random background probes
Direction: higher = stronger binding
Constant ends, left off below: GCCTAGCAC … GTCTTGATTCGCTTGACGCTGCTG
Sequence	log fluorescence [z-score]
GACGGTTTCGAATATCGGGACGTGCTA	4.65
TTCCTTTACTTTCTTTTTTTGTGCTAG	3.61
GACGGATTCGGTCTCGGGACGTGCTAG	0.444
TTAGAACTGAGTTCCGATTAGTGCTAG	0.814
AGGGAGGTCTCTCCCGACCTGTGCTAG	-0.977
GACGGTTTCCTTTCCCTAACGTGCTAG	1.94
GACGATCTCGGGTATCGAGACGTGCTA	0.446
GACGAACTTGGGACTGGAGACGTGCTA	-0.389
TTTTCATTATTGTCTCCCCCAGTGCTA	2.34
GACGATATCAGTTTCGAGCCGTGCTAG	5.69
TTTTCTCTCCCATTCTGAATGTGCTAG	1.61
GACGATCTCAGTTGCGAGACGTGCTAG	0.138
TTACGTTTCGGGACTGGGTTAGTGCTA	6.25
TCAAGCCTCCATTTTTAACTGTGCTAG	-0.182
TTAGAACTGGGGTTGCGATTAGTGCTA	0.216
TCATGTTGCAGACTCGAACTGTGCTAG	0.0711
CACAGGCTGCACAGAATGTAGTGCTAG	-0.259
TCATAGATGCCTTTCTCACTGTGCTAG	0.202
TTAGGATTGCTACTGCTTTAGTGCTAG	0.025
TACGGTATCGGACTGGGGACGTGCTAG	1.06
GACGGTATAGGGACTGGGGACGTGCTA	-0.425
GACGATTCCAGTCTCGAGACGTGCTAG	0.367
CTCACCGCCAACCCAGTTCCGTGCTAG	-0.168
AGATTTTTATCAAATGTGGGAGTGCTA	0.309
TTAGGTTCCGGGACTGGGTTAGTGCTA	-0.0539

For quick reference, copied from above (series 3):
Sequence	E-score
AGTACGAC	0.00306
CTTCGTCA	0.0265
AGTGGACC	-0.158
ATAGAACC	0.0322
GTAGGTTA	0.104
AGCCTTAG	-0.0484
GCCTTTCC	-0.0124
GATTATAC	0.163
GGATTGAA	0.116
